Experimental data collected from several papers.
Lines come from different studies, so protocols differ. Numbers after ± are the reported error.

Compound | cell line | assay | setting | IC50
O=C(NCc1cc(F)cc(F)c1)[C@@]1(O)CCN(c2ccc3[nH]ccc3c2)C1=O | SW1990 | cell growth or viability |  | > 30000 nM
C[C@@H]1CC[C@@H]([C@@](O)(CNCc2ccc(F)cc2)COCc2ccc(F)cc2)[C@H](OCc2ccc(F)cc2)C1 | A2780 | cell growth or viability, MTT | 72 h | 1410 nM
COc1cc2ncnc(Nc3ccc(F)c(Cl)c3)c2cc1NC(=O)/C=C/CN1CCCCC1 | BaF3 | cell growth or viability | 72 h | 2600 nM
COc1cc(-c2cn(C)c(=O)c3cnccc23)c(OC)cc1Cn1ccnc1 | MOLM16 | cell growth or viability, ATP luminescence |  | 1600 nM
NC(=O)c1ccc(-c2ccccc2Cl)c2c3c([nH]c12)CC[C@H](N)C3 | MINO | cell growth or viability |  | 28.7 nM
CNS(=O)(=O)Nc1nccc(Cc2c(C)c3ccc(Oc4ncccc4F)cc3oc2=O)c1F | Calu-1 | cell viability | 7 days | > 1000 nM
CCCON(Cc1ccc(C(=O)NO)cc1)C(=O)Nc1cc(C)cc(C)c1 | SUP-B15 B-ALL | cell viability, CellTiter-Glo | 72 h | 2160 ± 124 nM
Cc1ccc2c(Cl)cc(Cl)c([O-])c2n1.Cc1ccc2c(Cl)cc(Cl)c([O-])c2n1.Clc1ccnc2c1ccc1c(Cl)ccnc12.[Co+2] | BEL-7404 | cell growth or viability, MTT | 48 h | 3860 nM
Cc1cc(Cl)cc(-c2ccnc3cc(CN4C(=O)C5C(C4=O)C5(C)C)sc23)c1C[C@@H]1CNCCO1 (stereo partly shown) | CHP-212 parental | cell viability, SRB | mean of 3 runs | 410 nM
Cc1ccc(-c2ccc(C)cn2)nc1.[Co+2].[O-]c1c(I)cc(Cl)c2cccnc12.[O-]c1c(I)cc(Cl)c2cccnc12 | BEL-7404 | cell growth or viability, MTT | 48 h | 10300 nM
CC(C)=CCc1c(OCC2OC2(C)C)ccc2ccc(=O)oc12 (stereo not shown) | MRC5 | cell growth or viability, MTT | 72 h | > 100000 nM
CC(C)c1ccc(N(C)c2ccc3c(c2)OCC[C@H]3CNc2cnccc2C(=O)O)cc1 | KYSE-150 overexpressing KDM4C | histone demethylation, HTRF, item: H3K36me3 | 24 h | 0.4 nM
Cc1ccc2c(Br)cc(Br)c([O-])c2n1.Cc1ccc2c(Br)cc(Br)c([O-])c2n1.[Co+2].c1cnc2c(c1)ccc1cccnc12 | BEL-7404 | cell growth or viability, MTT | 48 h | 7540 nM
COc1ccccc1CNC[C@@](O)(COCc1ccccc1)[C@@H]1CC[C@@H](C)C[C@H]1OCc1ccccc1 | A2780 | cell growth or viability, MTT | 72 h | 1990 nM
CCCC(CCC)C(=O)[O][Pt]([NH2])([NH2])([Cl])([Cl])[O]C(C)=O | 2008 ovarian adenocarcinoma | cytotoxicity, MTT | 72 h | 1590 ± 600 nM
C=CC(=O)N1CCCC(n2c(=O)c3ncccc3n(Cc3ccc(Oc4ccccc4)cc3)c2=O)C1 (stereo not shown) | VAL | cell proliferation, MTT | 72 h | 12000 nM

A few entries again:
Compound | cell line | assay | setting | IC50
CC(C)=CCc1c(OCC2OC2(C)C)ccc2ccc(=O)oc12 (stereo not shown) | MRC5 | cell growth or viability, MTT | 72 h | > 100000 nM
